Assay results pooled from the literature.
Each numbered part is a random draw from the data of one study; scales do not carry over between parts. Substitutions count along the parent as printed.

Set 1 — target: UBE2Q1 UBC core domain (UniProt Q7Z7E8); method: yeast two-hybrid; sample: yeast; setting: mostly zero background; baseline: not given; direction: higher = stronger interaction
UniProt Q7Z7E8, sequence (whole entry, looked up): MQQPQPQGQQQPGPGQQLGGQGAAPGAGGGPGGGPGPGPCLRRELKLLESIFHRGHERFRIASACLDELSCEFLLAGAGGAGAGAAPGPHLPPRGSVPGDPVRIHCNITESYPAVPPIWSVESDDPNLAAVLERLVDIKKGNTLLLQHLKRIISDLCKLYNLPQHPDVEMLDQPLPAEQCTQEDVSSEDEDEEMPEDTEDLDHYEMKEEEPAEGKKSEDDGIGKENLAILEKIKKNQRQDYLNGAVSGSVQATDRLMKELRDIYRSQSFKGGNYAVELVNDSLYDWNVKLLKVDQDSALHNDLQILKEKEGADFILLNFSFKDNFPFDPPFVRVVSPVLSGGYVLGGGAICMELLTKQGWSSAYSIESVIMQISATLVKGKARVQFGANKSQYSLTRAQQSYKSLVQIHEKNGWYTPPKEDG
B1: TRIM22 RING domain (UniProt Q8IYM9); chain VKVDIEKEVTCPICLELLTEPLSLDCGHSFCQACITAKIKESVIISRGESSCPVCQTRFQPGNLRP
B2: RNF31 RING domain (UniProt Q96EP0); chain AFLRRLLAQECAVCGWALPHNRMQALTSCECTICPDCFRQHFTIALKEKHITDMVCPACGRPDLTDDTQLL
B3: RNF166 RING domain (UniProt Q96A37); chain GDSGLEAQYTCPICLEVYHRPVAIGSCGHTFCGECLQPCLQVPSPLCPLCRLPFDPKKVDK
B4: TRIM54 RING domain (UniProt Q9BYV2); chain SMDNLEKQLICPICLEMFSKPVVILPCQHNLCRKCANDVFQASNPLWQSRGSTTVSSGGRFRCPSCRHEVVLDRHGV
B5: ANAPC11 RING domain (UniProt Q9NYG5); chain GICRMAFNGCCPDCKVPGDDCPLVWGQCSHCFHMHCILKWLHAQQVQQHCPMCRQEWKFKE
B6: RNF183 RING domain (UniProt Q96D59); chain EQQGRELEAECPVCWNPFNNTFHTPKMLDCCHSFCVECLAHLSLVTPARRRLLCPLCRQPTVLASGQP
B7: RNF122 RING domain (UniProt Q9H9V4); chain AKKLQLYGQTCAVCLEDFKGKDELGVLPCQHAFHRKCLVKWLEVRCVCPMCNKPIASPSEAT
Sequence	lacZ reporter activity
PEELAVNNDDCAICWDSMQAARKLPCGHLFHNSCLRSWLEQDTSCPTCRMSLNIADNNR (AMFR RING domain (UniProt Q9UKV5))	0
B1 (TRIM22 RING domain)	0
B2 (RNF31 RING domain)	0
AEADPLGRFTCPVCLEVYEKPVQVPCGHVFCSACLQECLKPKKPVCGVCRSALAPGVRAV (RNF114 RING domain (UniProt Q9Y508))	0
B3 (RNF166 RING domain)	0
B4 (TRIM54 RING domain)	0
YCEMGSTFQLCKICAENDKDVKIEPCGHLMCTSCLTAWQESDGQGCPFCRCEIKGTEPII (CBLB RING domain (UniProt Q13191))	0
LDAASGHPLVCPLCHGQYERPCLLDCFHDFCTGCLRGRATDGRLSCPLCQHQTLVKGPSG (Rnf207 RING domain (UniProt Q3V3A7))	0
YPEEVDDDLICHICLQALLDPLDTPCGHTYCTLCLTNFLVEKDFCPMDRKPLVLQHCKK (LNX1 RING domain (UniProt Q8TBB1))	0
B5 (ANAPC11 RING domain)	0
B6 (RNF183 RING domain)	0
B7 (RNF122 RING domain)	0

Set 2 — method: DHFR PCA, deep sequencing; sample: yeast; with: (+)-ABA 0 µM; baseline: wild-type fitted maximum; direction: higher = stronger binding
Target: ABI1, truncated, D143A, DHFR fusion (Arabidopsis thaliana)
Setting: methotrexate growth selection, single substitutions
Parent: PYL1, truncated, DHFR fusion (Arabidopsis thaliana); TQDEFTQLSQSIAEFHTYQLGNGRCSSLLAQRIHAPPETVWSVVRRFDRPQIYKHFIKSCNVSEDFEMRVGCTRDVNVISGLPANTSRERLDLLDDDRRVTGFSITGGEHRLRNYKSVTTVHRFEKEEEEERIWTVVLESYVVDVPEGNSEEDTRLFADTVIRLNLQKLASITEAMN
Change	relative binding score
D96R	-6.69%
R24W	0.907%
I33T	3.31%
R123N	7.82%
I133N	39.4%
Q19V	16.6%
P146L	26%
T101M	64.7%
Q167T	9.49%
D153N	-7.4%
E129M	13.2%
D48E	3.49%

Set 3 — method: RNA Bind-n-Seq; form: RNA; sample: in vitro; tested at: 365 nM; baseline: no-protein control; direction: higher = stronger binding
Target: RNA binding protein fox-1 homolog 2, RRM domain, GST-SBP tag (RBFOX2, Homo sapiens, UniProt O43251-10, residues 100-194)
Setting: natural RNA segment, single round, ends assumed
Shared flanks, not repeated: GGGAGUUCUACAGUCCGACGAUC … UGGAAUUCUCGGGUGCCAA
Target sequence (chain): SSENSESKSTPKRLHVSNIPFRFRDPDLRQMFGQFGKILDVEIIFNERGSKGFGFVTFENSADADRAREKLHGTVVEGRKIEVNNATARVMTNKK
Strand	RBNS enrichment (R)
UAUAGACUACUUUCUAUGCAAGACUGAGAUAUGGAAUAGAUAGGAAGAGAUAUGUACUGCUGGGUACAUGGACAGUAAGUGUGUUUUCAGAUGGAGUACCAGCACCGAAA	0.828
GUUAAUUUCUGUCAAACAGUAGGUGACAAAUGGCCGAUCUUAUCAGUGUCUCUUGAGCAUCCCUUCGCGCCCCCCACCCUCCACUGCCGUCCCUCCCCAGAUGGGGCGUU	0.354
GUUGGGUGAAACAGAUUGUCCUAUCACAAAGCAGAAUUCAACAAAGUUAAAAUUUAAGAUAAGGUUUAAAAAGCUUUAUUCCUGUUUACAAUUUGGGAUGAGAAGCAGGC	1.17
AGGGAAAUUAUUGCAGAAGAAUGCCUUUCCCUCAUUUUAUAACUUUAAAAACUUGGAUUAACCACUCAAUGUCCACUUUCUUUGACUUACAGUAUAACCAUGUAGCCAAU	0.896
ACUAUGUGUUAUACACUGCAUACACAUACUUCCUUUACCCAGAGAAAAGAAAUAAAAUUGAACCAAAGGAUUUUCCCAGAAAAAAACAAGAAAGCAGUUUUAGAAGGCCA	0.749
GAUUUCAAACUGAAUAUGGGUCCCCAAAUGUUCCCAGAGGGUCCUCCACACCCUCUGCCGACUACCACGGUGUGGAUUCAGCUCCCAAAUGACAAACCCAGCCCUUCCCA	0.285
CUUGGGAAGAAAUGGCCAUUAUUUACAGAUUGUAUUUGGUACAUAUUGUGUGAUACUUGAAAAGAUAAAAGGGACUGCCAGCCCCUAACUGAAAUCUGAAGCUUUUUAUC	0.545
CCUGCCACCUGGCAGGAGGCCCACUCACUGCCCAAGUCAUGGCAACAGGCUGGAGCAGCCCAGGAGAUGGGCCUAAAAUGUUCUGGAUCCCUUGGGUCCUAGUGUUAUGU	0.186
UGAUUUUUCAUAGUUUUAACUAGAUUUCCAAGAUAUUUUGUGCAUUUGUUUCAACUGAAUUUUGGUGGUGUCAGUGCCAUUAUCUAGCACCCUGAUUUUUUUUUUUUUAC	1.14
AAUAAACCACAAAUCCACCGUUUCUAUGUAGCUUGUAUUUGUAAAGUCUGAGUUUACCGUCUGAAUGUAAAGUUCCGUGUUGUCCGCUCACGACGGAAGUGAAGAAGAUA	0.704
GCCUAGACACCCCUGAAGUUUGGAUGAAGUCUGGUGGAUUCCCUGUCUGUUGUAUUUCUGUGUGCCUGUUCCCUUCAUUGCUGUGAGUUGGGAGUGCAUUGAGAGAUGAU	2.35
GCUCCCUUGGCCAGGAGCGAGCGAAGCUGUGGCCUUGGUGAAGCUGCCCUCCUCUUCUCCCCUCACACUACAGCCCUGGUGGGGGAGAAGGGGGUGGGUGCUGCUUGUGG	0.403

Set 4 — method: RNA Bind-n-Seq; form: RNA; sample: in vitro; tested at: not given; baseline: input RNA pool; direction: higher = stronger binding
Target: RING finger protein unkempt homolog, zinc fingers 1-6, GST-SBP tag (UNK, Homo sapiens, UniProt Q9C0B0, residues 30-357)
Setting: RNA with constant flanks, human-mouse chimeric sites, ends assumed
Shared flanks, not repeated: GGGAGUUCUACAGUCCGACGAUC … CAACAGAGGAUUGAGCAUCA
Target sequence (chain): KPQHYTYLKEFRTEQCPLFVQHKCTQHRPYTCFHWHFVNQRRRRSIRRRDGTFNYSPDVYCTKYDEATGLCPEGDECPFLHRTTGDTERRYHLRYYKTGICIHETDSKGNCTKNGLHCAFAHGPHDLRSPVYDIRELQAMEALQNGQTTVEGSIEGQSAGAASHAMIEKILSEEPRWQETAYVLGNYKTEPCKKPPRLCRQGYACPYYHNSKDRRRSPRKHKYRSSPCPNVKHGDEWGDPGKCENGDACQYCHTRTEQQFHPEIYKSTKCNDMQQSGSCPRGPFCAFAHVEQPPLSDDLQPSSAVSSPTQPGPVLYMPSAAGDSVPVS
Strand	bound/input enrichment [ratio]
GGAAUUGCUGAUUCAAGCAAGUUUGAAUAUCACAAUGUUAGCUUUCUAAUUCCAUAAAAGUACUUGGUUUUUACAGUUUAUAAUCUGACAUCACCCCAGCGCCAUUUGUAAAGAGCAACU	0.451
AAAUCGUGUGUGUCCAAUAUUGAAAGUGCUUUAUCUACACUCCAGUAUGUAAGCAGUAUAGUAGUUUCUUUAGAGAAUAGGUCUGCCAUUGUGAAGUACAAUGCAAGCUUAGUCACUCCA	1.73
GACAGUGAAGGCCCACUGUGUGAAUUGCUUUUUUUCUUCCUGACUGCAAUCUUCCAGGCAAUAGCUGAAGAAGAGGAGGAAGUAGCCAAAGAGCAGAUAACUGAUGCUGACACCAAAGAU	0.0669
GAGCCCAGUCGGCAGUUUGUAAAGGACUCCAUUCGGCUGGUUAAAAGAUGCACCAAACCCGACAGAAAAGAAUUCCAGAAGAUUGCCAUGGCUACAGCUAUAGGAUUUGCUAUCAUGGGA	0.218
CCAAUUGUGGAGCAGUACUUGAAGACAAAGAAAAAUUCUAAUAAUUUAAUCAUCAAGUACAUUAGCUGCCGCCUGCUGACACUCAUCGUUAUACUGUUGGCAUGUAUCUACCUGGGCUAU	0.323
CAGCCUCAGAGCCCAGACUUCCUGGAUAUUACCAACCCUAAAGCGGUAUUAGAAAAUGCAUUGAGAAACUUCGCCUGUCUGACCACCGGGGAUGUGAUUGCUAUCAACUACAAUGAGAAG	0.45
UUGCCUGAGAACGAGGAUGAGCUGGAGAGCACCAACAGGCGCUACACCAAGAGGGACUGCAGCACUUUCCUCAGAACUAGUGAGACGGGCAUCGUGGACCAGGUCAUGGUAACUCUCAAC	0.0824

Set 5 — target: CCNB3, cyclin fold, Cln2 fusion (human); method: yeast growth competition, sequencing; sample: yeast; setting: strong parent motif; baseline: not given; direction: higher = stronger binding
Parent: SCAPER docking peptide (human); SNARRSLNFGGST; partner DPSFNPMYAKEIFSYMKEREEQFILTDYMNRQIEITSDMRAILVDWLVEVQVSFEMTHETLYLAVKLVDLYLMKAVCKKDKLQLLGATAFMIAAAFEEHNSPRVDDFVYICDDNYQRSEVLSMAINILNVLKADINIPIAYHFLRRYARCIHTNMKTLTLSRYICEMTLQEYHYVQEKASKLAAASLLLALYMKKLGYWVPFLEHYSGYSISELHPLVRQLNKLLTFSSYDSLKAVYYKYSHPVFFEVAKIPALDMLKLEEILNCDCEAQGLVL
Change	normalised enrichment score
SNARRSLNKGGST [F9K]	0.0391
SNARRSLNFGTST [G11T]	1.7
SGARRSLNFGGST [N2G]	2.01
SNARRSLDFGGST [N8D]	1.57
SNARRSLMFGGST [N8M]	0.557
SNARRSLNFFGST [G10F]	0.558
SNARRSLNFLGST [G10L]	0.539
SNYRRSLNFGGST [A3Y]	0.407
KNARRSLNFGGST [S1K]	1.07
SNAWRSLNFGGST [R4W]	0.397
SNARRSLSFGGST [N8S]	1.44
SNARRSRNFGGST [L7R]	-0.13
SNARRSLNYGGST [F9Y]	0.398
SNSRRSLNFGGST [A3S]	0.305
SEARRSLNFGGST [N2E]	1.2

Set 6 — method: protein binding microarray; form: double-stranded DNA, one strand shown; sample: in vitro; tested at: not given; baseline: not given; direction: higher = stronger binding
Target: Histone acetyltransferase KAT6A, winged helix 1, GST fusion (KAT6A, Homo sapiens, UniProt Q92794, residues 1-85)
Setting: 8-mer, flanks averaged, mean of 2 arrays, mostly near background
Target sequence (chain): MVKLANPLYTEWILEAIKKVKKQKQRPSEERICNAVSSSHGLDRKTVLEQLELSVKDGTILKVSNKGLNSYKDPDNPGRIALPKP
Strand	E-score
AGCTAGTG	-0.202
AAGACTCT	-0.222
AGGTTACG	0.115
AAGGGTCA	-0.0494
TCGGTGCA	0.0746
CGTTCCAC	0.181
GGCCGATA	0.307
AGACCTTG	-0.141
ACGAATCT	-0.187
GCGTCTAC	0.21
AGCCGTTG	0.212
CCGGCGGA	0.466
TGCCCTAA	-0.0687
AGATCGCT	0.117
GGATTCAC	-0.0846
GCGCTGAA	0.237
GACTAAGC	0.167
ATTATGTG	-0.0877
CTGCCCAG	-0.256
ATACTATC	-0.0385

Some of these lines once more (set 1):
Sequence	lacZ reporter activity
B1 (TRIM22 RING domain)	0
B2 (RNF31 RING domain)	0
AEADPLGRFTCPVCLEVYEKPVQVPCGHVFCSACLQECLKPKKPVCGVCRSALAPGVRAV (RNF114 RING domain (UniProt Q9Y508))	0
B3 (RNF166 RING domain)	0
B4 (TRIM54 RING domain)	0
YCEMGSTFQLCKICAENDKDVKIEPCGHLMCTSCLTAWQESDGQGCPFCRCEIKGTEPII (CBLB RING domain (UniProt Q13191))	0
LDAASGHPLVCPLCHGQYERPCLLDCFHDFCTGCLRGRATDGRLSCPLCQHQTLVKGPSG (Rnf207 RING domain (UniProt Q3V3A7))	0
YPEEVDDDLICHICLQALLDPLDTPCGHTYCTLCLTNFLVEKDFCPMDRKPLVLQHCKK (LNX1 RING domain (UniProt Q8TBB1))	0
B5 (ANAPC11 RING domain)	0
B6 (RNF183 RING domain)	0
B7 (RNF122 RING domain)	0
